# Published values from different studies.
# Every numbered part comes from another study and shows a few of its results, in no order.

# Block 1 — method: aptamer microarray, sandwich; molecule type: DNA with 2'F-ANA; medium: in vitro; concentration: 200 nM; with: Cy3 exosite-II aptamer, 400 nM; reading: higher = stronger binding; strand: GGTTGGTGTGGTTGG
# Target: Prothrombin, mature alpha-thrombin (F2, Homo sapiens, UniProt P00734)
# Setting: whole 15-mer aptamer, many near background
Modification,mean fluorescence intensity [a.u.]
2'F-ANA at 1 2 4 6 7 9 12 13 15,134
2'F-ANA at 1 2 4 6 8 9 11 13 14,52.4
2'F-ANA at 9 11 14 15,192
2'F-ANA at 3 4 5 6 8 10 11 14,47.2
2'F-ANA at 8 15,676
2'F-ANA at 1 2 5 8 13 15,50.6
2'F-ANA at 1 4 5 7 8 9 10 11 14 15,48.6
2'F-ANA at 1 4 6 7 9 10 11 13,47.4
2'F-ANA at 1 2 4 5 6 9 10 12 13 15,56.3
2'F-ANA at 2 3 4 5 6 7 10 12 15,52.3
2'F-ANA at 1 4 5 6 7 10,76.8
2'F-ANA at 1 2 4 6 7 10 12 13 14 15,67.1
2'F-ANA at 2 3 5 6 11 12 13 15,109
2'F-ANA at 1 2 3 4 5 6 7 11 12 13 15,71
2'F-ANA at 3 7 8 9 11 14,662
2'F-ANA at 1 4 5 6 7 13 14 15,45.9
2'F-ANA at 1 2 3 7 8 11 13 15,219
2'F-ANA at 1 8 14 15,63.4
2'F-ANA at 2 5 6 7 11,56.7
2'F-ANA at 2 3 5 7 11 12 13 14,57
2'F-ANA at 2 5 6 8 9 11 12 15,115
2'F-ANA at 1 3 4 5 10 13,44.9
2'F-ANA at 1 2 3 5 6 7 8 12 13 14,50.2
2'F-ANA at 1 2 3 5 6 9 13 14,60.1
2'F-ANA at 1 2 6 9 10 12 14,48.2

# Block 2 — method: protein binding microarray; molecule type: double-stranded DNA, one strand shown; medium: in vitro; concentration: not given; baseline: not given; reading: higher = stronger binding
# Target: Histone acetyltransferase KAT6A, winged helix 2, GST fusion (KAT6A, Homo sapiens, UniProt Q92794, residues 85-181)
# Setting: 8-mer, flanks averaged, mean of 2 arrays, mostly near background
# Construct (chain): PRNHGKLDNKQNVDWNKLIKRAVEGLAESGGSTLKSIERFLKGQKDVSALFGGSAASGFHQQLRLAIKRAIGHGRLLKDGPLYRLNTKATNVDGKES
Strand,E-score
AGGCTGTC,-0.204
GGGTGATA,-0.106
CAATTACA,0.0272
CTACGACA,0.0618
ACATGTCC,-0.176
GACTCGGA,0.0819
CAAACTAA,0.12
TACGCGCA,0.124
AGCATCAT,-0.119
CGTTAGAA,0.0744
GGTGGGAC,-0.143
CAATACAC,-0.0231
CCAGCAGC,-0.0522
AGTTACAC,0.112
CAATGTTA,-0.0352
AATCGAGG,0.143
TTCGCCAA,0.105
CTACTGGC,-0.129
GACTAAAC,-0.0938
ATTGGAAA,0.0509
CAACAAAA,0.223
CATAGAAC,-0.164
TCCAGACA,-0.0496
ACGGAGTC,0.08
GCCGGTAC,0.0306

# Block 3 — method: RNA Bind-n-Seq; molecule type: RNA; medium: in vitro; concentration: 365 nM; baseline: no-protein control; reading: higher = stronger binding
# Target: RNA binding protein fox-1 homolog 2, RRM domain, GST-SBP tag (RBFOX2, Homo sapiens, UniProt O43251-10, residues 100-194)
# Setting: natural RNA segment, single round, ends assumed
# Constant ends, left off below: GGGAGUUCUACAGUCCGACGAUC … UGGAAUUCUCGGGUGCCAA
# Residues (chain): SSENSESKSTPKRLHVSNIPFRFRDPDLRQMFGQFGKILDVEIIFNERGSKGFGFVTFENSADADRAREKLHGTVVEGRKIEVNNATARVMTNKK
Strand,RBNS enrichment (R)
CCCCAAAGUCAGAGGUGAUUUGAUUUGGGGAAGACUGAAUAUUCACACCUAAGUCGUGAGCAUAUCCUGAGUUUUACUUCCUUAUGGCUUGCCCUCCAAGUUCUCUCUCU,0.348
CACCCUCAUGCCAACUCUGCCCCAGGUCCAGGCCUCUGGGGCUGAUCUCAGGGAAGCCCAGCUCUGAAGCUAGAUUUACUGGACAAAGGGCAGCCUGGAAAGAGACUCCC,0.332
CCUCCUCCCCCAACGCAUCCCAGCCAGUGCCAUGUCCUCUGCAGGUGGAGUUACUGGCCUACUCCUUCCCCAUGAGCCCUCCCUGUCUGCACUGCCCAGGCCAGAGGGUA,1.67
AUGUUCUACUUGUCAGGGCUGGAACUAUUGUAUAGAAGAUAAUAUGAUUGUGACUUCUAGUUCUUUUCUAGAGGAUGCUGCUAGAAAAUGGUUUUGCUUUGUAUUUUAUA,9.29
UGGUGGACCGUGGAGUGCAGAGGUUUAGGGAGAUCCUGCCAUUGCUCACACAAGAAGACAGAGCCGGAAACAUGCAGGGUCAGACCAGUGUUCCUACAGUGAGCCCCAGA,0.467
CCCCCACUAGAAACCCACUUCCAGAGUCAUGUUUGCAUCACAGUCAAAAGAGAAGUCUGUGCACCUCAAGUGAGGUCCCAGGAGCUUUCCUCGCCCUCCAAACCAAGCAU,0.516
GACCUUCCUCUAUCCCCUGCCCAUCCUCCCUUUUACCUCCUCUCUUUUUUAAACACCUGUUUAUCCCAACCUUUUUGAGCUCAAGCUGUGAUAAAGAAGGGCCCAUCCUA,0.702
AGAACUGCCCACAAAACAAGGCUGUGAACUUUUCGGGAACUGGAACUGUUUAACUUGAACCCAGGAUUGUUUAAAGCUUUAUUUAUUUAUAGCUUCUUCUUAAAAAAAAG,0.531
CCUUUUUUCCAAUCAAGCUGUUUCCCCUGUUCUUACCCUAUAUAAGUUGCAAACAAUAUCGCUGAACAGUAGGGUGUGUGGUGGUUUGGGGCAGUCUGACUUCACUUUAG,0.33
CUUUGUCUCCACCACACAUAGUGUACUUUGGAAGCACAACGUCCAGGCUGGUACCGCAGCGCCAUGCCCAUUCCUCGCCUCAUUCAUAGGACACUUCACUGCCAUUUUCU,0.26
AGCCAGUUCCAUCACUCAGGUAGUGCCUGAAUCAACCUUCAGAGCCUGAUUAGUCACAUAUCAUUGGAGGUCAAACGCCAUUUCCAGUGGCCUCUCUGUGUGCCCACAUG,0.334
GAAGAGGGGAGACCUCUUCUACGACCCCUCCCACUCGGGCCCGAGUAGGGCCUGGGACCCCGAAUGUGAAUAUAACGUAGCAUCUUCGCUGGCUAUGGCCGUGCACUCCC,1.87

# Block 4 — method: RNA Bind-n-Seq; molecule type: RNA; medium: in vitro; concentration: 1 µM; setting: whole 134-nt RNA, ends assumed; with: 150 mM KCl; baseline: input library; reading: higher = stronger binding
# Target: Ras GTPase-activating protein-binding protein 1, C-terminal RGG region (G3BP1, Homo sapiens, UniProt Q13283)
# Chain of UniProt Q13283 (whole entry, looked up): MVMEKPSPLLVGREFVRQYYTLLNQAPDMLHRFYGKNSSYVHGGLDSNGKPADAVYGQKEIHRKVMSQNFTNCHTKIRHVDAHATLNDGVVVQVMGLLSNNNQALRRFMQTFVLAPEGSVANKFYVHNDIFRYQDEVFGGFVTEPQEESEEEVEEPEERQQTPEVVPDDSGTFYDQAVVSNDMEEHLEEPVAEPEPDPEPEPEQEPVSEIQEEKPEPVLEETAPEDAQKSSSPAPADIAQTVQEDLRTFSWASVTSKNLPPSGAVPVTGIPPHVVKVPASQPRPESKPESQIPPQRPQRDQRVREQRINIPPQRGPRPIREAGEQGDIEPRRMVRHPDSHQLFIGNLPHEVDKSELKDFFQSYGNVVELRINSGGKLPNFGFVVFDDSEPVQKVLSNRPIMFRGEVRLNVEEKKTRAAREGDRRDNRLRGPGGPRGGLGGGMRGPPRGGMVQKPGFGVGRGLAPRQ
# Constant ends, left off below: GGGAGUUCUACAGUCCGACGAUC … UGGAAUUCUCGGGUGUCAAGG
Strand,log2 enrichment
UGGACUUGCGGGUUCCCAUCUGGGACCAGGACAUACAGUUUCUCCCAGGAUCACAGAAGCUUGUCACCUGCACAGGGUACCACCAGGUAA,-0.791
UUUUACAUUUAUACACAUGUAUUGGCUUCCUUUUACACUAUUAGGCGGUCAAGAAGCAGAUCGAGACGGCGGUCACAUUCUAAGUCUAGG,0.122
GUCCUGUGCUACACAUCGUAUGUACCGAAUCGGAAAAAGGGGAAAAAGGGAAAAAGGGAAAGUAUUAUGUUACGCCGUUCGGAUCUGCAC,-0.821
CACAGACAACACGCACCCACACAGACACAGAGGGAAGGGGUUGGGAUGGGGACAGGGUGCACAGCAGGGCGGGGUAGGACCCCAGCCCCA,-0.919
GUCCUGUGCUACACAUCGUAUGUACCGAAUCGGAAAAAAGGAAAAAAGGAAAAAAGGGAAAGUAUUAUGUUACGCCGUUCGGAUCUGCAC,-1.66
UGGGAGGUGGAUUUUGUUUAUUUUUUUAGCCCAUUUCCAGGGGUGGGAAUUUUUUUUUAAUAUGUGUCAUGAAUAAAGUUGUUUUUGAAA,3.04
UCAAGUCCUGUGCUACACAUCGUAUGUACCGAAUCGGCCCGGGCCCGGGCCCGGGAAAGUAUUAUGUUACGCCGUUCGGAUCUGCACUUC,-1.97
GCAGGAAGUAAAAACAAAUGGAAAUGCUUCGGAUAGUGGCAGGGGUGGGGGUUGCUAAGGAAAGGGUGGGAUGGGAGCGGGUAAAGAGUU,1.74
CCUGUGCUACACAUCGUAUGUACCGAAUCGGGGAAAAAGGGGUUUUUGGGGUUUUUGGGGAAAGUAUUAUGUUACGCCGUUCGGAUCUGC,0.475
GCAGGAAGUAAAAACAAAUGGAAAUGCUUCGGAUAGUGGCAGGGGUGGGGGUUGCUAAGGAAAGGGUGGGAUGGCAGUGGGUAAAGAGUU,1.89
GUCCUGUGCUACACAUCGUAUGUACCGAAUCGGGUUUUUGGGUUUUUGGGUUUUUGGGGAAAGUAUUAUGUUACGCCGUUCGGAUCUGCA,0.586
UCCUCAAGUCCUGUGCUACACAUCGUAUGUACCGAAUCGGGCGGCGGGGCGGAAAGUAUUAUGUUACGCCGUUCGGAUCUGCACUUCCAG,-0.68
AGUCCUGUGCUACACAUCGUAUGUACCGAAUCGGGUGGGUUUUUGGGUUUUUUUGGGAAAGUAUUAUGUUACGCCGUUCGGAUCUGCACU,-0.276
UAGUCCAGCAUCAAGAUUCGCCGGCCUGGAUACAAAUCAGCGACUUACAGCUUUAGCUGAAGACAGACCGUUAUUUGAUGGACCUAGUAG,-2.15

# Repeated from above (block 1):
Modification,mean fluorescence intensity [a.u.]
2'F-ANA at 1 4 5 6 7 10,76.8
2'F-ANA at 1 2 3 4 5 6 7 11 12 13 15,71
2'F-ANA at 1 2 3 5 6 7 8 12 13 14,50.2
2'F-ANA at 2 3 5 7 11 12 13 14,57
2'F-ANA at 1 2 6 9 10 12 14,48.2
2'F-ANA at 1 4 5 6 7 13 14 15,45.9
2'F-ANA at 2 3 4 5 6 7 10 12 15,52.3
2'F-ANA at 8 15,676
2'F-ANA at 1 2 3 7 8 11 13 15,219
